Published values collected from several papers.
Every numbered part comes from another study and shows a few of its results, in no order. Changes are numbered by the printed parent chain.

Block 1
Target: RNA binding protein fox-1 homolog 2, RRM domain, GST-SBP tag (RBFOX2, Homo sapiens, UniProt O43251-10, residues 100-194)
Method: RNA Bind-n-Seq
Form: RNA
Sample: in vitro
Tested at: 365 nM
Notes: natural RNA segment, single round, ends assumed
Reference: no-protein control
Direction: higher = stronger binding
Target sequence (chain): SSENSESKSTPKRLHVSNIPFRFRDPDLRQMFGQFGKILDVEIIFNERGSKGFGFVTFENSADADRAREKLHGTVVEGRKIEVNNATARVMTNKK
Oligonucleotide	RBNS enrichment (R)
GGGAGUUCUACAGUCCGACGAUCUAGUUCGAAGGAUGCCGCCGUGCUGUCUGUGGCCGCCCUCCCAUGUCCUGUCCCCUGUAGCUGCUUUCUUAGAUGGAAACAGGCUAACGAAGAGAGGGACACUGUCGUGUUGGAAUUCUCGGGUGCCAA	0.211
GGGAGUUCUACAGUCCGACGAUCCUUGAAAUUCAUUGGUCUAGUUGUAAUUUUUAUACAAAUUACACCAAGAGAUAAGAUGUCUUUUUUUUACAGAAGUGUAAUAGUCACAGUGCCGCUUAUAGGCUGCACGCUGGAAUUCUCGGGUGCCAA	0.298
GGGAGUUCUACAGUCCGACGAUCGGGUUGGACAGUGAAUCUUAAGAUUUCAUCCUUCAUUCAGUAAGCAUUUGAGUACCUACUGUGAGCAGGCAUUGGGGCGGAGCAGCGAGAGCCCUGCCGAUGUUGGGUUCUGGAAUUCUCGGGUGCCAA	0.382
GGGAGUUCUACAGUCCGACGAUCGUGGUAAAAAAGCCUCUGAAAGCUGUAACACCCUCAGUAAUAACAAAAGGGAUUUUUAUUUCACAGCUAAAGGGAAAAUAGGUGGAGAAGUUAAAAAAUAAUGUCUGAUCUGGAAUUCUCGGGUGCCAA	0.768
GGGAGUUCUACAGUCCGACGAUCGGGAGAGCUGAGUGCUGAGCCUUGGGAGCCCCUGCCAGCCACGUGCACCUGUGGACAGUGGGUGGGGCACUACUCCCCACUCAGAGCACAAAUGCAACCCCUCCCCUACAUGGAAUUCUCGGGUGCCAA	0.512
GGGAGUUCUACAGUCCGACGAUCCCCUAGGUAGCUGGCUGUUUUGAUGAGGUCAUUUGAAUCAUGGGAGUGUCCUUACACUACACUAUCCUGAGCUGGUUGGGGUGGGUAGAAGAAGGCAAGGACUGCCUGAGUGGAAUUCUCGGGUGCCAA	4.43
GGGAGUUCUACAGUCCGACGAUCGUCUGCAGAUGGAAAUCAUUCCCCACUGGCAGUAUCUGCUCGGGUUCAACGCUCUGUCCUCUGAGGAGUGUUGUGUCUGAUUUUAUUUUAAAAGUUCACGGUAUGAGAGUUGGAAUUCUCGGGUGCCAA	0.529
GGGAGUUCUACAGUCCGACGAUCCAGCAUGUGGCGGUCUGUGUGAAGCCACCGUGCUUCUCUUUGGGGGGCCGCGAGAUCUAGCAUCUCUGAAAUCCUGGCUGUCGAGGCUUUGAAGCAUGUGUUACCUGGUUUGGAAUUCUCGGGUGCCAA	19.5
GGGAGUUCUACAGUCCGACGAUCAUUUAAGAAAAAUUGCUGUUUCUACUCUCUGUAUCUGAUUUUAAAAGGAAAAAAAAAUUCACACCUGGCUUUCAGGUAACUGACUUUGGAUUCUUACAAGCAAAGGUCAUUGGAAUUCUCGGGUGCCAA	0.441
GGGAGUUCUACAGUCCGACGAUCGGCGUCUUCACUGCUUUAUCUCAUGAUGCUUGCUUGUAAAACUUGAUUUUAGUUUUUCAUUUCUCAAAUAGGAAUACUACCUUUGAAUUCAAUAAAAUUCACUGCAGGAUUGGAAUUCUCGGGUGCCAA	0.799
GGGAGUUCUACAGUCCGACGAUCUGAGUCAACAGACAUCAAAAUUACUGUGUACACACUUGAACAGAUGAAGAUCUUGGAUGAGCCCGUGGUCUUUUGUGUCAUCUACGAAGCUGUGGGACUAAGCAGCUGUAUGGAAUUCUCGGGUGCCAA	0.487
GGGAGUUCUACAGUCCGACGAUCACGUGUCCCUAGCUUAGUAUAAGUAGAUCUGUAGUUGGGCCCAGAGGAAUAUGGCCGGACAGGAGACUUACUUGUGGAGAAGGGACAGACCAGGCCUUCCCUCUAGGGCUUGGAAUUCUCGGGUGCCAA	0.557

Block 2
Target: Prothrombin, mature alpha-thrombin (F2, Homo sapiens, UniProt P00734)
Method: aptamer microarray, sandwich
Form: DNA with 2'F-ANA
Sample: in vitro
Tested at: 200 nM
Notes: whole 15-mer aptamer, many near background
With: Cy3 exosite-II aptamer, 400 nM
Direction: higher = stronger binding
Oligonucleotide: GGTTGGTGTGGTTGG
Modification	mean fluorescence intensity
2'F-ANA at 1 2 6 8 10 11 14 15	89.3 a.u.
2'F-ANA at 5 7 8 9 11 12 15	137 a.u.
2'F-ANA at 1 2 3 7 8 9 15	270 a.u.
2'F-ANA at 1 4 7 8 11 12 14 15	61.9 a.u.
2'F-ANA at 1 2 3 4 7 10 11 12 14	48.5 a.u.
2'F-ANA at 2 4 7 11 12	563 a.u.
2'F-ANA at 1 3 8 10 11 12 15	129 a.u.
2'F-ANA at 1 2 3 5 9 12 13 15	82.7 a.u.
2'F-ANA at 4 5 9 10 11 12 14	66.2 a.u.
2'F-ANA at 4 7 11 12 14	142 a.u.
2'F-ANA at 2 5 6 8 9 10 13	48.4 a.u.
2'F-ANA at 1 2 3 4 8 9 11 13 14	57.3 a.u.

Block 3
Target: CCNF, cyclin fold, Cln2 fusion (human)
Method: yeast growth competition, sequencing
Sample: yeast
Notes: strong parent motif
Reference: not given
Direction: higher = stronger binding
Starting sequence: SAMHD1 docking peptide (human); ASKSRVQLFKDDP
Variant	normalised enrichment score
ASKSRYQLFKDDP [V6Y]	0.216
AQKSRVQLFKDDP [S2Q]	1.5
ASESRVQLFKDDP [K3E]	0.0597
ASKSRVELFKDDP [Q7E]	0.171
AHKSRVQLFKDDP [S2H]	1.98
ASKSRVQIFKDDP [L8I]	-0.0715
ASKSRVQLFGDDP [K10G]	0.533
ASKSRRQLFKDDP [V6R]	6.65
ASKSRVQYFKDDP [L8Y]	0.205
ASKSRVQLFKYDP [D11Y]	1.25
ASKSRVFLFKDDP [Q7F]	0.391
ASKSAVQLFKDDP [R5A]	0.106
ASKSRVYLFKDDP [Q7Y]	0.563
ASKSRVQLFWDDP [K10W]	0.792

Single results of other studies
Molecule	target	assay	system	setting	scale	quantity	result
PhoQ, residues 284 288 289 292 302 303 DDMDFR	PhoP, residues 12 14 15 18 19 LYFRQ (Escherichia coli, UniProt P23836)	Sort-seq, refers to: YFP reporter	E. coli	PhoQ-PhoP variant library, with: 10 µM Mg2+	reference: high Mg2+ state, higher = stronger signaling	fold induction	0.929

For quick reference, copied from above (block 3):
Variant	normalised enrichment score
ASKSRVFLFKDDP [Q7F]	0.391
ASESRVQLFKDDP [K3E]	0.0597
ASKSRYQLFKDDP [V6Y]	0.216
ASKSRVQIFKDDP [L8I]	-0.0715
ASKSRVQYFKDDP [L8Y]	0.205
ASKSRVELFKDDP [Q7E]	0.171
